# Results pooled from the literature.
# Each numbered part is a random draw from the data of one study; scales do not carry over between parts. Changes are numbered by the printed parent chain.

# Block 1 — method: RNA Bind-n-Seq; form: RNA; medium: in vitro; concentration: 365 nM; baseline: no-protein control; reading: higher = stronger binding
# Target: RNA binding protein fox-1 homolog 2, RRM domain, GST-SBP tag (RBFOX2, Homo sapiens, UniProt O43251-10, residues 100-194)
# Setting: natural RNA segment, single round, ends assumed
# All sequences stand within: GGGAGUUCUACAGUCCGACGAUC … UGGAAUUCUCGGGUGCCAA
# Residues (chain): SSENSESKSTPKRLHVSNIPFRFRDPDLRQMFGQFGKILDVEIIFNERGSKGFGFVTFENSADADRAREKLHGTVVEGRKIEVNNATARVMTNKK
Strand,RBNS enrichment (R)
AGUUUAAAAAUCAAAAUGUUAACACAAAGCUAAGAUUCAUCAGAGCCCACCCUAUUCUAAGGAACCACAAUAACUUACUCUGGCCCCAGUGUUAAAACGAUCUUUCAGAU,0.359
AUGUAUACUUGGUGGUAGAGGGCUUGCUUGAAGACCCAAGUUCCAUCCCUAGCACCACAGAGCAGGGAGGGGACACAGAUUUAGGAGAGAUUUGUCUUUUUCUCCUUUGG,0.362
GCAAGGAAGGCCUCACACUGUCCAGCAUACUCCAGCCUGAAUUGCCUACUGGGUUCUCAGGGGGCAGACAGGUCCUGGCCGAAAGUCUUACCAUGGGGAUCGAUAGGGUG,0.35
AUCUCUAAGCCUUUUAAUAAAACUGUACUGAAGUUUUUAUCAGCUAAGAGUCAGUUCUUCAAUUCUGGUCCCAUUAUCUCCAAGUGCCUUUUUUACAGUGACAACAGACA,0.589
GCGGCCCUUCCUGCAGCGCCUGCCGCCCCGGGGACUCGCAGCACCCACAGCACCACGUCCUCGAAUUCUCAGACGACACCUGGAGACUGUCCCGACACAGCGACGCUCCC,0.443
AUUCCUCACCAAGGAAGUGGCUGCAGGGACACUGGUGCCACGGCUCCUGGGCCAGCCCUUAUGUCUGAAACUGGUUGCCAACAGCCCCGAGCCAAGGCAAGGAUUUGUGU,0.311
ACAGUCGUUGUUUGAAUCACCCGACUUCAGCAAGAUUACUGGCAAACCCGUGAAGCUCACCCAAGUGGAACACAGGGCUGCUUUCGAGUGGAAUGAAGAGGGGGCAGGAA,2.21
GAGAAAAAUGAAACCCACAUGCCGCCAUUUUCCUGAAUCAAAUUCUGCAGUGGAAUGGAGAGGAAAAUACUUCUAGGCAAGCAGCUAGACUGGUGAAUUGGGGGAAAUAG,0.773

# Block 2 — method: competition protein-binding microarray; form: double-stranded DNA, one strand shown; medium: in vitro; concentration: 2 µM; with: Cbf1 competitor, 0.05 µM; reading: higher = stronger binding; all sequences stand within: … GTCTTGATTCGCTTGACGCTGCTG
# Target: Phosphate system positive regulatory protein PHO4, full length, GST-tagged (PHO4, Saccharomyces cerevisiae, UniProt P07270, residues 1-312)
# Setting: whole 60-bp probe, lowest competitor level
# Target sequence (chain): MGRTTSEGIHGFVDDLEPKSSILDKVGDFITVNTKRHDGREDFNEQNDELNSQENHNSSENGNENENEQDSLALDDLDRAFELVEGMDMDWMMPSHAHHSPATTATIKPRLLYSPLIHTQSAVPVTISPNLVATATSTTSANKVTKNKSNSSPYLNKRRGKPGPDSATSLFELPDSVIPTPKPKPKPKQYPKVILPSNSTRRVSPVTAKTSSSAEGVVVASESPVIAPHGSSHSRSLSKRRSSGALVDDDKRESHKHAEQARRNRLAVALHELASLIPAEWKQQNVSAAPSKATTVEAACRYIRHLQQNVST
Strand,fluorescence intensity [a.u.]
CCGGTGTTGCCCCATTCCGTGGGTATATCAGAGAGC,5510
TCCACCTTTGAAAACGGTGTGACGAAGCCCTTTCGA,4060
AAAGCGGTAATTTGTCACAGCACTTCACATATCTAT,3870
GATGTTTCCGTCACCGACATGACAATAACCACTTGA,3740
CGATTTTTGCCTCACCACGTTCTGCCCATTCTTCTC,13300
CAGAAGGAGAGACTGAACGTGTACTTCAACGAGGCA,9770
CCTCACCATTCGGGGCAGGTGACGAAGCAAGAGCGA,4230
CGGGGTTAAGTTTGCTGAGTGGGTGGCTTGCAGCAG,4780

# Block 3 — target: CCND2, cyclin fold, Cln2 fusion (human); method: yeast growth competition, sequencing; medium: yeast; setting: strong parent motif; baseline: not given; reading: higher = stronger binding
# Starting sequence: E2F1 docking peptide (human); PPVKRRLDFETDH
Variant,normalised enrichment score
PPVVRRLDFETDH [K4V],1.8
PFVKRRLDFETDH [P2F],0.496
PPVKRRLDFETQH [D12Q],1.87
PPVKRRLDFEKDH [T11K],1.63
PPVKRRLDFEFDH [T11F],2.12
PPVKRRLDFRTDH [E10R],1.14
PPIKRRLDFETDH [V3I],1.31
PPVGRRLDFETDH [K4G],1.14

# Mixed results
# Starting sequence: PafA, mature enzyme, eGFP fusion (Elizabethkingia meningoseptica, UniProt Q9KJX5); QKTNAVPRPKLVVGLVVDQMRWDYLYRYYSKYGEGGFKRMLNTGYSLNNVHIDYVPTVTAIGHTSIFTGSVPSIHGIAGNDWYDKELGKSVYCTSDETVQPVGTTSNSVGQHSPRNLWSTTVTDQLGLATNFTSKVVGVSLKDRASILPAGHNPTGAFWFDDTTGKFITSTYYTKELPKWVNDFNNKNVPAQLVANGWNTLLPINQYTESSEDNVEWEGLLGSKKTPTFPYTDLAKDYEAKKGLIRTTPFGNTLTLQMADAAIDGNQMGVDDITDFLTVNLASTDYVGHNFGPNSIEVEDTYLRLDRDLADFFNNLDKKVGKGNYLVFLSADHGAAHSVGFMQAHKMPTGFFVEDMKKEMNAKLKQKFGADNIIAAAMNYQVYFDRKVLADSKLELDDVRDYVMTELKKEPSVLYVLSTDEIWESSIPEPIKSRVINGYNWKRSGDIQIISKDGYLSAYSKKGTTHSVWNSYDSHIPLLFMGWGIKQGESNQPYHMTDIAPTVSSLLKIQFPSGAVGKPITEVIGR
Variant,target,assay,system,conditions,how to read,quantity,value
K318V,"tungstate, free oxyanion",microfluidic competitive inhibition,"in vitro, cell-free expressed","not given, derived from inhibition constants, unchanged parent 2230 nM",lower = stronger binding,oxyanion analog dissociation constant,2.38 µM

# A few entries again (block 1):
Strand,RBNS enrichment (R)
GCGGCCCUUCCUGCAGCGCCUGCCGCCCCGGGGACUCGCAGCACCCACAGCACCACGUCCUCGAAUUCUCAGACGACACCUGGAGACUGUCCCGACACAGCGACGCUCCC,0.443
AUUCCUCACCAAGGAAGUGGCUGCAGGGACACUGGUGCCACGGCUCCUGGGCCAGCCCUUAUGUCUGAAACUGGUUGCCAACAGCCCCGAGCCAAGGCAAGGAUUUGUGU,0.311
ACAGUCGUUGUUUGAAUCACCCGACUUCAGCAAGAUUACUGGCAAACCCGUGAAGCUCACCCAAGUGGAACACAGGGCUGCUUUCGAGUGGAAUGAAGAGGGGGCAGGAA,2.21
GAGAAAAAUGAAACCCACAUGCCGCCAUUUUCCUGAAUCAAAUUCUGCAGUGGAAUGGAGAGGAAAAUACUUCUAGGCAAGCAGCUAGACUGGUGAAUUGGGGGAAAUAG,0.773
